# Results from different studies.
# Lines come from different studies, so protocols differ. “And” joins repeats or separate records; there may be more than shown. ± gives the spread as reported.
# UniProt Q9Y616, sequence (whole entry, looked up): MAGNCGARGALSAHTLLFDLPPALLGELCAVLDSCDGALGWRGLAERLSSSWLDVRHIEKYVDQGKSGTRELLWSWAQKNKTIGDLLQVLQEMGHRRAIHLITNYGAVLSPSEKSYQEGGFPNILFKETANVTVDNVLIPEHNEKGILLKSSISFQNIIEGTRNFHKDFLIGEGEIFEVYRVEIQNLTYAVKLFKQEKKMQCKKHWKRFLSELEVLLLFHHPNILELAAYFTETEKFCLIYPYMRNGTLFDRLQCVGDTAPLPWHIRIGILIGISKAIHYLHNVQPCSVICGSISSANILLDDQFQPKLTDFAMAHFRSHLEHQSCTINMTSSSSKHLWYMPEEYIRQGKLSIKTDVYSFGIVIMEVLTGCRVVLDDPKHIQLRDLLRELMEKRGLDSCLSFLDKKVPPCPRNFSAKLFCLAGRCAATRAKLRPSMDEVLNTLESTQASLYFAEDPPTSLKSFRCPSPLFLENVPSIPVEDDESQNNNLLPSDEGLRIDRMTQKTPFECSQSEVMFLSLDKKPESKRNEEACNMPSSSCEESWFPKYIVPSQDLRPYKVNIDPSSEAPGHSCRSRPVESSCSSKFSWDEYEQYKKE
SMILES,target or system,assay,test system,setting,measurement,value
CSc1cc(C)nc(SC)c1NC(=O)CN1CCN(CCSc2nc3ccccc3[nH]2)CC1.Cl,,,"mouse Crl:CD1 (ICR), female, cerebrum","intranasal, 10 µL of HA solution once daily for 7 days, 120 min after last dose",tissue concentration,2.6 ng/g and 1.5 ng/g
O=c1cc(-c2ccc(O)cc2)oc2c([C@@H]3OC[C@H](O)[C@H](O)[C@H]3O)c(O)c([C@@H]3O[C@H](CO)[C@@H](O)[C@H](O)[C@H]3O)c(O)c12,,UHPLC-MS/MS,"C57BL/6J mouse, brain","oral, dose not given",tissue concentration,0.25 ng/g
CC[C@]1(O)C[C@H]2CN(CCc3c([nH]c4ccccc34)[C@@](C(=O)OC)(c3cc4c(cc3OC)N(C=O)[C@H]3[C@@](O)(C(=O)OC)[C@H](OC(C)=O)[C@]5(CC)C=CCN6CC[C@]43[C@@H]65)C2)C1,CHP-212 resistant subline R2 (heterozygous USP7 V517F),cell viability,,1.524 nM,viability,81.9% and 93.9%
OCc1nc2ccc(NCc3ccc(C(F)(F)F)cc3)cc2[nH]1,,,"Balb/c mice, male, kidney","intravenous, 1 mg/kg, 48 h",tissue concentration,not detected
N=C(N)NCCC[C@H](NCC(=O)[C@@H](O)[C@H](O)[C@H](O)CO)C(=O)O,,UPLC-MS/MS,"C57BL/6J mice, striatum","intraperitoneal, dose not given, 15 min",tissue concentration,7 ± 3 pmol/mg tissue
CC[C@@H]1[C@H](F)C(=O)N[C@@H]1COc1nccc2cc(C(N)=O)c(OC)cc12,"Interleukin-1 receptor-associated kinase 3 (IRAK3, Homo sapiens, UniProt Q9Y616)","ATP-site probe binding, inhibitor, ActivX ATP probe profiling",THP-1 cell lysate,"0.01 mM, kinase domain site",inhibition,-5.3%
CN(C(=O)n1cnc(-c2ccc[n+]([O-])c2)c1)[C@H]1CC[C@H](O)CC1,,,"rat, cerebellum","oral, 10 mg/kg single dose, 1 h",tissue concentration,8.7 ± 0.5 ng/g
CCc1c2c(nc3ccc(OC(=O)N4CCC(N5CCCCC5)CC4)cc13)-c1cc3c(c(=O)n1C2)COC(=O)[C@]3(O)CC,,,"mouse FVB, intestine","intraperitoneal, 50 mg/kg, 24 h",tissue concentration,8040 ± 2240 ng/g
NC/C(=C\F)COc1cccc(Cn2c(=S)[nH]c(=O)c3[nH]cnc32)c1,,,"C57BL/6J mice, liver","oral, 15 mg/kg single, 2 h",tissue concentration,1740 ng/mL
CC(C)C[C@H](NC(=O)C[C@H](O)[C@H](CC(C)C)NC(=O)[C@H](Cc1c[nH]cn1)NC(=O)CNC(=O)[C@@H](NC(=O)[C@H](C)NC(=O)[C@H](Cc1c[nH]c2ccccc12)NC(=O)[C@H](CCC(N)=O)NC(=O)[C@@H](Cc1ccccc1)NC(=O)COCCOCCNC(=O)CCC(C(=O)O)N1CCN(CC(=O)O)CCN(CC(=O)O)CCN(CC(=O)O)CC1)C(C)C)C(N)=O (stereo partly shown) [lutetium-177 labelled],,,"female BALB/c nu/nu mice, muscle","intravenous, 100 pmol, 2 h, together with: PA 300 µg",tissue uptake,0.05 ± 0.02 %ID/g
Cc1nc2ccc(OCc3ccc(C(F)(F)F)cc3)cc2[nH]1,,,"Balb/c mouse, male, liver","oral, 10 mg/kg, 72 h",tissue concentration,3 ± 0.8 ng/g
CN(C(=O)n1cnc(-c2cccnc2)c1)[C@H]1CC[C@H](O)CC1,,,"rat, hippocampus","oral, 10 mg/kg daily for 5 days, 4 h",tissue concentration,42.2 ± 7.2 ng/g
Cc1cc(Nc2ccc(S(F)(F)(F)(F)F)cc2)n2nc(C(C)(F)F)nc2n1,Plasmodium vivax,,human Plasmodium vivax malaria patients,"oral, 600 mg",patients with cardiac adverse events,22.2%
